Assay results collected from several papers.
Each line is one published result; not all experiments were run side by side. ± gives the spread as reported.
BCHE: Cholinesterase (BCHE, Equus caballus, UniProt P81908)
UniProt P81908, sequence (whole entry, looked up): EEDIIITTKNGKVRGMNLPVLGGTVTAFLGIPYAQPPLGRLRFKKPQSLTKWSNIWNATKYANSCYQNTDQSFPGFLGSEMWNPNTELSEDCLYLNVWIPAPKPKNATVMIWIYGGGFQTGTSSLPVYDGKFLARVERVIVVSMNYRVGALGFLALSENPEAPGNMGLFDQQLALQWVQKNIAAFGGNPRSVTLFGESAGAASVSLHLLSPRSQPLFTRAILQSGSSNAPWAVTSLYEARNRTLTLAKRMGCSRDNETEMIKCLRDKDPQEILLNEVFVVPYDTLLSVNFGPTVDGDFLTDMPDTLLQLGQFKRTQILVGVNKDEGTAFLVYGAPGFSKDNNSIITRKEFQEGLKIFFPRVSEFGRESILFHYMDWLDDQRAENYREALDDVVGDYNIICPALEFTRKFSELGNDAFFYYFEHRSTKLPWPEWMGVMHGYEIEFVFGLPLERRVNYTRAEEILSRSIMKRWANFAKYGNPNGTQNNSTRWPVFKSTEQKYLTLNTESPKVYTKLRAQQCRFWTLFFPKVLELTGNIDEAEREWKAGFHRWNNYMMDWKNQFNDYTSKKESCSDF
UniProt Q86Z02, sequence (whole entry, looked up): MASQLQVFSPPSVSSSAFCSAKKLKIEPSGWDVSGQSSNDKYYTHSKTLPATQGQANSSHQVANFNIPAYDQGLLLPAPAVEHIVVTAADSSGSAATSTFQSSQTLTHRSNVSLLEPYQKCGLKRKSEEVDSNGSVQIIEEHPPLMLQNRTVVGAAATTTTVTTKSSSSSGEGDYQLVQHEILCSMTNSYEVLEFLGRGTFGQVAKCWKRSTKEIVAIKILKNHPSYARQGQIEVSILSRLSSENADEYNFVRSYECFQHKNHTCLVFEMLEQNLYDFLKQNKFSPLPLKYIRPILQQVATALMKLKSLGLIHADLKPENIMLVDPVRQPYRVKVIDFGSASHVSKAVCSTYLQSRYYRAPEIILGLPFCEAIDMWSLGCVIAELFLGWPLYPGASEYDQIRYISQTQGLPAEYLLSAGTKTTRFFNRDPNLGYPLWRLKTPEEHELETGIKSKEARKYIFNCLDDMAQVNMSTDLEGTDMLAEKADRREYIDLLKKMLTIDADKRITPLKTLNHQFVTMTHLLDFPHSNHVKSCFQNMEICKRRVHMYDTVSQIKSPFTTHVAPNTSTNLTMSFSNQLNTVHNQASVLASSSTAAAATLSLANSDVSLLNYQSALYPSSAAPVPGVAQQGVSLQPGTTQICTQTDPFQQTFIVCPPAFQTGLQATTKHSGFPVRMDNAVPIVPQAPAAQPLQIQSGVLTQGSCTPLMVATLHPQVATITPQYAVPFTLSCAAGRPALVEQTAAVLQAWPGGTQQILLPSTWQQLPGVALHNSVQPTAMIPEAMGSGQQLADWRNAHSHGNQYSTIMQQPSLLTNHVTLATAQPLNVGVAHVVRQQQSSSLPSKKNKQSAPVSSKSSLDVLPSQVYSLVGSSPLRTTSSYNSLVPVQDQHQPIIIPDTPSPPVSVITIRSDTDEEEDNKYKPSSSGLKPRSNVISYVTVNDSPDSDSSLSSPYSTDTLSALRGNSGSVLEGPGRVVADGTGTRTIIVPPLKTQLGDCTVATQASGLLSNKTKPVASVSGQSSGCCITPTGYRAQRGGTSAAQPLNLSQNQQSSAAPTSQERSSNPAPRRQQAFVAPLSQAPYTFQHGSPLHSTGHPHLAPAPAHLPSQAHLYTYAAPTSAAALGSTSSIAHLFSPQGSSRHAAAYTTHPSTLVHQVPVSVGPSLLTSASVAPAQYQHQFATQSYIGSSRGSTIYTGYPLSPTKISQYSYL
UniProt P80192, sequence (whole entry, looked up): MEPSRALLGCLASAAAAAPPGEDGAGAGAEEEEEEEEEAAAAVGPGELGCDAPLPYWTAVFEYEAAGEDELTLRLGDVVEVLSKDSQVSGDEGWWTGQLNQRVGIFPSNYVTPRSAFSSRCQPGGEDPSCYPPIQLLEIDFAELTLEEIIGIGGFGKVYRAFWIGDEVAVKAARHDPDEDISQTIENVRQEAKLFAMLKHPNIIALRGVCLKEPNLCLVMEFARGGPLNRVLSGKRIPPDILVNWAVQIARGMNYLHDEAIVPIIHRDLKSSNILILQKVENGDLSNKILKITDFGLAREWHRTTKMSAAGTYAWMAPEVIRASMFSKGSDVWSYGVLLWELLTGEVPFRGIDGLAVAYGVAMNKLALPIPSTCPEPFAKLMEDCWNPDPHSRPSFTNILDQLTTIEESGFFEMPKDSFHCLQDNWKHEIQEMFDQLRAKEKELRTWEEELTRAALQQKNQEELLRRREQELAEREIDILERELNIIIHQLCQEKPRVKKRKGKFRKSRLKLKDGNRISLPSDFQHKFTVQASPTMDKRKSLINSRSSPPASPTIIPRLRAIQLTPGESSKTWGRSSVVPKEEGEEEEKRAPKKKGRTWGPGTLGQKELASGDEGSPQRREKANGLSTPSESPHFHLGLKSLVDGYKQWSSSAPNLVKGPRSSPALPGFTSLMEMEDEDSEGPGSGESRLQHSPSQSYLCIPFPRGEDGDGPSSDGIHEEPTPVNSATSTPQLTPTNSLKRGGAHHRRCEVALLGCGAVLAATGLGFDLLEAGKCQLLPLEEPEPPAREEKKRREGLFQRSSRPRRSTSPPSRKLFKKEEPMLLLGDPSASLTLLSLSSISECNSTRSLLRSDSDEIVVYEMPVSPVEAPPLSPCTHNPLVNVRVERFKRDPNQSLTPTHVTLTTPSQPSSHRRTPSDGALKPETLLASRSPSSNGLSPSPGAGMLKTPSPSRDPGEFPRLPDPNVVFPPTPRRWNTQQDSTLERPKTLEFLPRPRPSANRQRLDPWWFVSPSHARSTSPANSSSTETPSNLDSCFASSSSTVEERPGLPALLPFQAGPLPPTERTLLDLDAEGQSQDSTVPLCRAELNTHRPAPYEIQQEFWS
UniProt Q8TD19, sequence (whole entry, looked up): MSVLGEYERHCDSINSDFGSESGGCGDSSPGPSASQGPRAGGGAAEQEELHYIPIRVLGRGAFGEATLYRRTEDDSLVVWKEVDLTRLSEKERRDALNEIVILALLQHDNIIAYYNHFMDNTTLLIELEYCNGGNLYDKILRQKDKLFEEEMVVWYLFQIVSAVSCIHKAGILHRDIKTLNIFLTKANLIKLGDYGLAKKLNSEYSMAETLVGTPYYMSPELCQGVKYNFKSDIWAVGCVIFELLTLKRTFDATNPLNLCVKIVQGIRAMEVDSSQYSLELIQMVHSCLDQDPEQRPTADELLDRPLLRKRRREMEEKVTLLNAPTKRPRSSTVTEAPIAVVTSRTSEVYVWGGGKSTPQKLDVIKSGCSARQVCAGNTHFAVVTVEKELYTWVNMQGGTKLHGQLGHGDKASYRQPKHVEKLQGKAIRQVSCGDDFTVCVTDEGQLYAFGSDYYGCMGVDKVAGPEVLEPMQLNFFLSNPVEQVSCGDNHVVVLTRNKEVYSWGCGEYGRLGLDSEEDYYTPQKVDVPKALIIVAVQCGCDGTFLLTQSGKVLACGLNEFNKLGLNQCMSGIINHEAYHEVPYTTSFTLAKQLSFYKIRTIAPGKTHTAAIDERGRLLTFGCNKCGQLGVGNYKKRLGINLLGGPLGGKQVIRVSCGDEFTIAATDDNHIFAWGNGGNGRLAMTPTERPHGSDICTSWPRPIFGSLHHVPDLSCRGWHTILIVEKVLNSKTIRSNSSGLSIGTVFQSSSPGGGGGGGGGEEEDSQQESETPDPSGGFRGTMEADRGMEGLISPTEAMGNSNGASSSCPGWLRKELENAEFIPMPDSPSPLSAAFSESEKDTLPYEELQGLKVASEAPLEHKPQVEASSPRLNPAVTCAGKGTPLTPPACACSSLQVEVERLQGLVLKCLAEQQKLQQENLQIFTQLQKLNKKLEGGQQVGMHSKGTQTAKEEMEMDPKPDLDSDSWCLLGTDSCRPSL
UniProt P30411, sequence (whole entry, looked up): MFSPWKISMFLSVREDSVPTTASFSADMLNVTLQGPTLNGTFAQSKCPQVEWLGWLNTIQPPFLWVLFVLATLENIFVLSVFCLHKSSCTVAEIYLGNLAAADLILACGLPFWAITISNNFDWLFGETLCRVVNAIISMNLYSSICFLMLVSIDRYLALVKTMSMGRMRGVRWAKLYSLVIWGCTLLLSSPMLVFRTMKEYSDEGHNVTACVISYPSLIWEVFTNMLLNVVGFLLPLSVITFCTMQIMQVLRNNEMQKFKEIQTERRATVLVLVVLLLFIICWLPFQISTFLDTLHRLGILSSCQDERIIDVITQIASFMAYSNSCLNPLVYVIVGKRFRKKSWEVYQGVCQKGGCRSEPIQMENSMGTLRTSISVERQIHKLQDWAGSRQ
UniProt P49840, sequence (whole entry, looked up): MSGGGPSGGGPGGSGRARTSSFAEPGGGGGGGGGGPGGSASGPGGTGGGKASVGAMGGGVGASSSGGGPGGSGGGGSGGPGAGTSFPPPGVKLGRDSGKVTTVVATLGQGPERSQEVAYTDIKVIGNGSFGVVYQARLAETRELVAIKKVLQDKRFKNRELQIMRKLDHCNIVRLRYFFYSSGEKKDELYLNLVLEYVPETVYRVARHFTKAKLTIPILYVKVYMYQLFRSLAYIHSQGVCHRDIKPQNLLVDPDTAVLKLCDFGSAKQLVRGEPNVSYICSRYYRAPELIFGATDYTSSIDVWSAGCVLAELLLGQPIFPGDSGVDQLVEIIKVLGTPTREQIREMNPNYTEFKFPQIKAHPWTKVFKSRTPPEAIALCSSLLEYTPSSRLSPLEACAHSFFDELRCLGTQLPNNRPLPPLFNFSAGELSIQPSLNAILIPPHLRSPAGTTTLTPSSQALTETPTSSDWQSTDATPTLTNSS
UniProt P07711, sequence (whole entry, looked up): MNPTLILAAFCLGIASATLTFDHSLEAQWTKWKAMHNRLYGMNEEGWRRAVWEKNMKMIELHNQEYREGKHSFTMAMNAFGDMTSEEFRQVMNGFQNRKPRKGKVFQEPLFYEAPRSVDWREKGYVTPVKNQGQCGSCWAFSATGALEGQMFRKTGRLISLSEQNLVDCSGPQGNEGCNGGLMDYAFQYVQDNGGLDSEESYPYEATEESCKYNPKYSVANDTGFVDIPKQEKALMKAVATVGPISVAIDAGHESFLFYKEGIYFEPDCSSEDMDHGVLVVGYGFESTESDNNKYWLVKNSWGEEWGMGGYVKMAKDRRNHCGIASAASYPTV

Structure (SMILES) | target or system | assay | test system | conditions | endpoint | result
N[C@H](C(=O)N1CCCC1)C1CCN(c2nccc3c(-c4ncc(Cl)cc4Cl)cccc23)CC1 | AMPA receptor | binding, radioligand binding |  | 10 µM | inhibition | -6%
CC(C)[C@H]1NC(=O)C[C@H]2/C=C/CCSSC[C@@H](NC1=O)C(=O)N[C@H](Cc1cccc3ccccc13)C(=O)NCC(=O)O2 | Serine/threonine-protein kinase Nek9 (NEK9, Homo sapiens, UniProt Q8TD19) | enzyme activity, inhibitor |  | 10 µM | inhibition | 0.428%
CCOC(=O)[C@](CC)(CCCSCCOCCOCCNC(=O)c1ccc(-c2c3ccc(=N)c(S(=O)(=O)O)c-3oc3c(S(=O)(=O)O)c(N)ccc23)c(C(=O)O)c1)NC(=O)c1ccc(C2CC2)c(Cc2ccc(F)cc2)n1 | GABA-gated chloride channel | specific binding, antagonist radioligand binding |  | 10 µM | inhibition | 30%
CN(/N=C/c1ccccc1C(=O)O)c1nc(-c2ccccc2Cl)cs1 | Homeodomain-interacting protein kinase 1 (HIPK1, Homo sapiens, UniProt Q86Z02) | enzyme activity, inhibitor |  | 1 µM | inhibition | -6.22%
CS(C)(=O)=Nc1ccc(-c2ccc(-c3nc4cc(O[C@@H]5CO[C@H]6[C@@H]5OC[C@H]6O)[nH]c4cc3F)cc2)cc1 | BDNF/NT-3 growth factors receptor (NTRK2, Homo sapiens, UniProt Q16620) | enzyme activity, inhibitor |  | 10 µM | inhibition | -19%
C[C@H](NCc1ccc(-c2ccc(C(F)(F)F)cc2)cc1)C(N)=O | Mitogen-activated protein kinase kinase kinase 9 (MAP3K9, Homo sapiens, UniProt P80192) | cell-free assay, competition with immobilised ligand |  | 1 µM | inhibition | 9%
CN[C@@H]1[C@H](O)[C@H](NC)[C@H]2O[C@]3(O)[C@H](O[C@@H]2[C@H]1O)O[C@H](C)C[C@H]3NC(=O)Cc1cc(Cl)ccn1 | B2 bradykinin receptor (BDKRB2, Homo sapiens, UniProt P30411) | ligand displacement, radioligand |  | 10 µM | inhibition | 16%
CC(=O)NC[C@@H]1[C@@H](O)C[C@H]2[C@H](O)C[C@@H](CO)N12 | Spodoptera litura β-N-acetylglucosaminidase |  | crude enzyme | 0.428 µM, run 2, added: p-nitrophenyl GlcNAc | inhibition | 49.8%
N#Cc1ccc(N2N=C3c4ccc(C(=O)O)cc4CCC3C2C2CCCC2)cc1Cl (stereo not drawn) | DNA (cytosine-5)-methyltransferase 1 (DNMT1, Homo sapiens, UniProt P26358) | enzyme activity, inhibitor |  | 10 µM | inhibition | 7%
NCC1CCN(Cc2ccccc2F)CC1 | BCHE | enzyme activity, inhibitor, Ellman |  | 20 µM | inhibition | 44.8%
CN(C)[C@H]1C[C@@]23CC[C@@]4(O2)C(=CC[C@]2(C)[C@@H](c5ccc6ccncc6c5)CC[C@H]24)C=C3[C@@H](O)[C@@H]1O | Glycogen synthase kinase-3 alpha (GSK3A, Homo sapiens, UniProt P49840) | ATP probe labelling, inhibitor, KiNativ profiling |  | 1 µM | inhibition | 1.7%
C=CC(=O)Nc1cc(-c2nn(C3CCC(N4CCN(C(C)=O)CC4)CC3)c3ncnc(N)c23)ccc1Oc1ccccc1 (stereo not drawn) | Mitogen-activated protein kinase kinase kinase 1 (MAP3K1, Homo sapiens, UniProt Q13233) | inhibitor, KiNativ profiling | biochemical | 2 µM | inhibition | -1.1%
O=C1NC2(CC2)COc2ncc(F)cc2[C@H]2COCCN2c2ccn3ncc1c3n2 |  |  | Sprague-Dawley rat, male, serum | oral, 5 mg/kg/day, 4 weeks daily, end of recovery period | aspartate aminotransferase activity | 92.6 ± 11.7 U/L
O=C1c2ccccc2CCCN1CCCCN1CCN(c2cccc(Cl)c2Cl)CC1 | 5-hydroxytryptamine receptor 2C (HTR2C, Homo sapiens, UniProt P28335) | radioligand binding |  | concentration not given, added: [3H]mesulergine | inhibition | 95.5%
COc1ccc(F)cc1S(=O)(=O)Nc1cnc2c(c1)C(=O)NCCO2 | adrenergic alpha1A receptor | radioligand binding |  | 10 µM | inhibition | -1%
C1CSCN1 | BCHE | enzyme activity, inhibitor, Ellman |  | 20 µM | inhibition | 38.1%
O=C(CN1CN(c2ccccc2)C2(CCN(C(=O)c3cnc4[nH]ncc4c3)CC2)C1=O)NCC(F)(F)F | Tyrosine-protein kinase ITK/TSK (ITK, Homo sapiens, UniProt Q08881) | inhibitor |  | concentration not given | inhibition | < 50%
NC12CC3CC(CC(C3)C1)C2 | Procathepsin L (CTSL, Homo sapiens, UniProt P07711) | enzyme activity, inhibitor |  | 100 µM, with preincubation | inhibition | 3%

Some of these lines once more:
Structure (SMILES) | target or system | assay | test system | conditions | endpoint | result
C1CSCN1 | BCHE | enzyme activity, inhibitor, Ellman |  | 20 µM | inhibition | 38.1%
O=C(CN1CN(c2ccccc2)C2(CCN(C(=O)c3cnc4[nH]ncc4c3)CC2)C1=O)NCC(F)(F)F | Tyrosine-protein kinase ITK/TSK (ITK, Homo sapiens, UniProt Q08881) | inhibitor |  | concentration not given | inhibition | < 50%
NC12CC3CC(CC(C3)C1)C2 | Procathepsin L (CTSL, Homo sapiens, UniProt P07711) | enzyme activity, inhibitor |  | 100 µM, with preincubation | inhibition | 3%
